Published values collected from several papers.
Parts stem from different laboratories: compare values within a part only.

Study 1
Target: RNA binding protein fox-1 homolog 2, RRM domain, GST-SBP tag (RBFOX2, Homo sapiens, UniProt O43251-10, residues 100-194)
Method: RNA Bind-n-Seq
Molecule type: RNA
Medium: in vitro
Concentration: 365 nM
Setting: natural RNA segment, single round, ends assumed
Baseline: no-protein control
Direction: higher = stronger binding
Target sequence (chain): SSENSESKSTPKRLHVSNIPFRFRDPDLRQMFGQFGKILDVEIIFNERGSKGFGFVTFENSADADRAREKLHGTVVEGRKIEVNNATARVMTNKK
| Oligonucleotide | RBNS enrichment (R) |
| --- | --- |
| GGGAGUUCUACAGUCCGACGAUCACCAAAACCACGCCGAGCACAGUGACUGUUUGACUCUUGGUAUUCAGAAGUCUGUAAUGAAUGUAAUUAUGUUUAGGCCAGUAAAUGAUGUAGAUUCGUCCUUUAUUGGUUGGAAUUCUCGGGUGCCAA | 0.38 |
| GGGAGUUCUACAGUCCGACGAUCGUAUGUCAGCACUUUUGUCCUGUAACUGUAGAUCUGUCUCAAUUGAAGUUAACUCACUAUAUUCGGAAACUUACUGGCCUAGAGAAUUUUAUCCCAGGCAUUCUUAGAUGUGGAAUUCUCGGGUGCCAA | 4.18 |
| GGGAGUUCUACAGUCCGACGAUCGGGUGGUCUCAGAAGGCACGAGGCUUCCUGCCUCUUCCCUCUUCCUCCUUGUAAGAGCUUCAACCCAAGUCCUCCAAUUCACAUUAAGGAAUCCAUACUAAAGGGGGACUUGGAAUUCUCGGGUGCCAA | 0.279 |
| GGGAGUUCUACAGUCCGACGAUCCUCUAGGACUGCCUCCCACUGCGGCCCCUCACCUGACUUCAGGGUAUGGGGAGGGAGGGAGCCAGUGCUCCAAGGCCAGGGGGCUUUGCUCAUGAGAGAUGUCAGGCUUCUGGAAUUCUCGGGUGCCAA | 0.236 |

Study 2
Target: Fragile X messenger ribonucleoprotein 1, C-terminal low-complexity region (Fmr1, Mus musculus, UniProt P35922)
Method: RNA Bind-n-Seq
Molecule type: RNA
Medium: in vitro
Concentration: 200 nM
Setting: whole 134-nt RNA, ends assumed
With: 150 mM LiCl
Baseline: input library
Direction: higher = stronger binding
Each molecule: 7-deaza-guanosine replaces G
| Oligonucleotide | log2 enrichment |
| --- | --- |
| GGGAGUUCUACAGUCCGACGAUCUCAAGUCCUGUGCUACACAUCGUAUGUACCGAAUCGGCCCGGGGCCCGGGCCCGGAAAGUAUUAUGUUACGCCGUUCGGAUCUGCACUUCUGGAAUUCUCGGGUGUCAAGG | -1.9 |
| GGGAGUUCUACAGUCCGACGAUCAAGUCCUGUGCUACACAUCGUAUGUACCGAAUCGGCCCCCGGCCCCCGGCCCCCGGAAAGUAUUAUGUUACGCCGUUCGGAUCUGCACUUUGGAAUUCUCGGGUGUCAAGG | 0.227 |
| GGGAGUUCUACAGUCCGACGAUCAAGUCCUGUGCUACACAUCGUAUGUACCGAAUCGGCCCCGGCCCCGGGCCCCGGGGAAAGUAUUAUGUUACGCCGUUCGGAUCUGCACUUUGGAAUUCUCGGGUGUCAAGG | -1.79 |

Study 3
Target: Histone acetyltransferase KAT6A, winged helix 2, GST fusion (KAT6A, Homo sapiens, UniProt Q92794, residues 85-181)
Method: protein binding microarray
Molecule type: double-stranded DNA, one strand shown
Medium: in vitro
Concentration: not given
Setting: 8-mer, flanks averaged, mean of 2 arrays, mostly near background
Baseline: not given
Direction: higher = stronger binding
Target sequence (chain): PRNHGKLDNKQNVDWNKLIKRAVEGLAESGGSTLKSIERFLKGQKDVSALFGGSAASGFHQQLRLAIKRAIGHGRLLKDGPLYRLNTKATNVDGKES
| Oligonucleotide | E-score |
| --- | --- |
| ACGGCGGC | 0.17 |
| GACTTAGA | -0.124 |
| GACTAGAA | -0.114 |
| GAAGTCCA | 0.00189 |
| TCACCCAA | -0.0906 |

Other studies, line by line
| Substance | target | assay | test system | conditions | how to read | quantity | result |
| --- | --- | --- | --- | --- | --- | --- | --- |
| PhoQ, residues 284 288 289 292 302 303 SCKMEA | PhoP, residues 12 14 15 18 19 HEGLL (Escherichia coli, UniProt P23836) | Sort-seq, measured: YFP reporter | E. coli | PhoQ-PhoP variant library, with: 10 µM Mg2+ | baseline: high Mg2+ state, higher = stronger signaling | fold induction | 17.4 |

Repeated from above (study 1):
| Oligonucleotide | RBNS enrichment (R) |
| --- | --- |
| GGGAGUUCUACAGUCCGACGAUCACCAAAACCACGCCGAGCACAGUGACUGUUUGACUCUUGGUAUUCAGAAGUCUGUAAUGAAUGUAAUUAUGUUUAGGCCAGUAAAUGAUGUAGAUUCGUCCUUUAUUGGUUGGAAUUCUCGGGUGCCAA | 0.38 |
| GGGAGUUCUACAGUCCGACGAUCGUAUGUCAGCACUUUUGUCCUGUAACUGUAGAUCUGUCUCAAUUGAAGUUAACUCACUAUAUUCGGAAACUUACUGGCCUAGAGAAUUUUAUCCCAGGCAUUCUUAGAUGUGGAAUUCUCGGGUGCCAA | 4.18 |
